Measured values of several laboratories.
Protocols differ between the studies behind these lines. ± gives the spread as reported.
PIK3CA: Phosphatidylinositol 4,5-bisphosphate 3-kinase catalytic subunit alpha isoform (PIK3CA, Homo sapiens, UniProt P42336)
UniProt P42336, sequence (whole entry, looked up): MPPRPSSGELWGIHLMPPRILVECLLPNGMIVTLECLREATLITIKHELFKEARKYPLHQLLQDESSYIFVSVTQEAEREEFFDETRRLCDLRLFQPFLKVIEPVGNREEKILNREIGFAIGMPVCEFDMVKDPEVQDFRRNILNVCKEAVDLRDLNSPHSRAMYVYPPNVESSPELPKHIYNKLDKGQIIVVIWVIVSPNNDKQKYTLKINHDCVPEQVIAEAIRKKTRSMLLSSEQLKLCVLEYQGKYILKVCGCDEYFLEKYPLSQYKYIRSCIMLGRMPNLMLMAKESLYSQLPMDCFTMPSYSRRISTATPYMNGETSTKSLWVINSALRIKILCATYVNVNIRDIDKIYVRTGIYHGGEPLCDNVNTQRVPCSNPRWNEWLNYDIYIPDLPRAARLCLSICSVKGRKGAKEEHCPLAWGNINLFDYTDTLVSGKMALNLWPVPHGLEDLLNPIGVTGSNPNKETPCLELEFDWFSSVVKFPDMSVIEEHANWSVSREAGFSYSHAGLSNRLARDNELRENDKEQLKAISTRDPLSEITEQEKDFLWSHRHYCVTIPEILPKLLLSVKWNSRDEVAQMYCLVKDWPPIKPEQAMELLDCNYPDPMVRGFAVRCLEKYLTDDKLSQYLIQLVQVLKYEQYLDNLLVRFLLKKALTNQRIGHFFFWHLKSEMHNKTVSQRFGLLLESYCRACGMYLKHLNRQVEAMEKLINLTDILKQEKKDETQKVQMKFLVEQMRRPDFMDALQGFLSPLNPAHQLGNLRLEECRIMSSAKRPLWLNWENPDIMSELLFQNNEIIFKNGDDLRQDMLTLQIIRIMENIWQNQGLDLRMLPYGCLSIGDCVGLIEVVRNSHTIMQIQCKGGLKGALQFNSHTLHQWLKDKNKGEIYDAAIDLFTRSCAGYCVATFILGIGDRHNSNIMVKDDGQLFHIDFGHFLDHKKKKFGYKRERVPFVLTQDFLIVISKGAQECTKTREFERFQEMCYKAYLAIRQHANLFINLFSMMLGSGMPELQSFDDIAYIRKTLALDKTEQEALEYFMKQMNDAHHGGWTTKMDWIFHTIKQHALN
MAPK9: Mitogen-activated protein kinase 9 (MAPK9, Homo sapiens, UniProt P45984)
IDO1: Indoleamine 2,3-dioxygenase 1 (IDO1, Homo sapiens, UniProt P14902)
UniProt P14902, sequence (whole entry, looked up): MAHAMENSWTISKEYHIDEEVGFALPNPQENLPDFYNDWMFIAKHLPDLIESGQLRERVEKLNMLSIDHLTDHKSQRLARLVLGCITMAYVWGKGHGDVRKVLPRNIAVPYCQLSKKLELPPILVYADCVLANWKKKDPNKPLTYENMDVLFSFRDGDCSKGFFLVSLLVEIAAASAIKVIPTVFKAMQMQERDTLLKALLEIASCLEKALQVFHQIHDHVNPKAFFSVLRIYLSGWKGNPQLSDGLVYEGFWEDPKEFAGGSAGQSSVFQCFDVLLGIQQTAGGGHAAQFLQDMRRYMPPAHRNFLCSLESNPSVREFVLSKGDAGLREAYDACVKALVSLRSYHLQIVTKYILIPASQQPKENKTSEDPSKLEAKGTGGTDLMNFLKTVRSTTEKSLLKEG
Gria2/Glutamate receptor 3: Gria2/Glutamate receptor 3 (Rattus norvegicus, UniProt P19491+P19492)
UniProt P19492, sequence (whole entry, looked up): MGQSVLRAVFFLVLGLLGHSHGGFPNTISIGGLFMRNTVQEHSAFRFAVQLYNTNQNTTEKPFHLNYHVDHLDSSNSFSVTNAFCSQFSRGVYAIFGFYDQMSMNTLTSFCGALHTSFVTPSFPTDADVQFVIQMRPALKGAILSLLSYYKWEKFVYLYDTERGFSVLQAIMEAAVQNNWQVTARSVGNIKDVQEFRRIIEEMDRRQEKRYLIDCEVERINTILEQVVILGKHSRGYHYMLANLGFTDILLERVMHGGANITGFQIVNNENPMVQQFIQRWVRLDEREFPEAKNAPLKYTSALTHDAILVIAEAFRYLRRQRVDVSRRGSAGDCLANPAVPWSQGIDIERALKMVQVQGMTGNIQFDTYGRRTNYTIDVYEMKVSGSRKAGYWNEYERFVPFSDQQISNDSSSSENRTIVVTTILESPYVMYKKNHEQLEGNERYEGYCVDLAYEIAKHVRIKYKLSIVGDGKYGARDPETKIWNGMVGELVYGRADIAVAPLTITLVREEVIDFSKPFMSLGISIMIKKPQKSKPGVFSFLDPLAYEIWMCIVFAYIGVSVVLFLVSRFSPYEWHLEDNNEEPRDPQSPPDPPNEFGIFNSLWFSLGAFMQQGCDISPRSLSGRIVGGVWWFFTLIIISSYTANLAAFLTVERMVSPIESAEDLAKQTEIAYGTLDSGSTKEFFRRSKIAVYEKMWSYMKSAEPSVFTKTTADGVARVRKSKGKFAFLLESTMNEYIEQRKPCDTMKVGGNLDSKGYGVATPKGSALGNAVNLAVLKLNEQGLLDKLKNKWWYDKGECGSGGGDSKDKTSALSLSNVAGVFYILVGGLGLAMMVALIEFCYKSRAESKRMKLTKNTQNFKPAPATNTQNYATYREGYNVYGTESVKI
UniProt P19491, sequence (whole entry, looked up): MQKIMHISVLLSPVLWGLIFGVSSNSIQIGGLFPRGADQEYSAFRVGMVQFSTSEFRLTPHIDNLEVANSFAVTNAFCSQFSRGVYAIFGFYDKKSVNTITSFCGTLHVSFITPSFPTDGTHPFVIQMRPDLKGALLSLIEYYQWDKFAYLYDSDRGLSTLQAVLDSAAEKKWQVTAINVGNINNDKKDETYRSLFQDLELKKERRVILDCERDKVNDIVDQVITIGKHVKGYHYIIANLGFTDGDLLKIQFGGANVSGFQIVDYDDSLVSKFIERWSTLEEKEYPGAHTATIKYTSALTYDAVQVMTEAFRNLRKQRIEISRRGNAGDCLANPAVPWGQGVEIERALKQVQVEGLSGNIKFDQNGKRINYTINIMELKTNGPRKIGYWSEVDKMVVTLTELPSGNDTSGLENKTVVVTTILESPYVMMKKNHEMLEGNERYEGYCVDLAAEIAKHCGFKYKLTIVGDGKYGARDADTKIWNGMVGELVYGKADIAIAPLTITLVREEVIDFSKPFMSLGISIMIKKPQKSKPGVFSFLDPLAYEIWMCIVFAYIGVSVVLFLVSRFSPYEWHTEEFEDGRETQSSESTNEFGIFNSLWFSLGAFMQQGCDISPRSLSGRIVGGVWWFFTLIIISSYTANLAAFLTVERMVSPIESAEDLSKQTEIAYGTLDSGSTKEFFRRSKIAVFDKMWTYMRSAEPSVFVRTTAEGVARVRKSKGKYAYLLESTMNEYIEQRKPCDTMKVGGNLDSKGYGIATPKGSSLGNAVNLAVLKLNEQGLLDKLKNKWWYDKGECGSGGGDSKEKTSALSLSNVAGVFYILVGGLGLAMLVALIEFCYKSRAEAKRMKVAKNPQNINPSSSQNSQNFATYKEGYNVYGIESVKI
CHRM1: Muscarinic acetylcholine receptor M1 (CHRM1, Homo sapiens, UniProt P11229)
UniProt P11229, sequence (whole entry, looked up): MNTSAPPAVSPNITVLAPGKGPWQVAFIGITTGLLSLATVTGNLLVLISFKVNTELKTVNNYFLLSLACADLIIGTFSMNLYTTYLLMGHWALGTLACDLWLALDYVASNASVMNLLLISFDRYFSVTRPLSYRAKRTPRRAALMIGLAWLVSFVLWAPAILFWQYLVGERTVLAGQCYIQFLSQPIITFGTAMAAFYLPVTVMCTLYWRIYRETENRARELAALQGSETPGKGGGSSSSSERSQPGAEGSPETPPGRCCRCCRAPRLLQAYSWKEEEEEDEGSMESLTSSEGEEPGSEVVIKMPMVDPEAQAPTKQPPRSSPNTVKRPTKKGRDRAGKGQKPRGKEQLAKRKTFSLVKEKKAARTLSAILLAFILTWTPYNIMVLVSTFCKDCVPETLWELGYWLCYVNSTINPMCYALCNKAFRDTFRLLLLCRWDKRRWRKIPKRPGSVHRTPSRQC
DGKZ: Diacylglycerol kinase zeta (DGKZ, Homo sapiens, UniProt Q13574)
SETD7: Histone-lysine N-methyltransferase SETD7 (SETD7, Homo sapiens, UniProt Q8WTS6)
UniProt P10809, sequence (whole entry, looked up): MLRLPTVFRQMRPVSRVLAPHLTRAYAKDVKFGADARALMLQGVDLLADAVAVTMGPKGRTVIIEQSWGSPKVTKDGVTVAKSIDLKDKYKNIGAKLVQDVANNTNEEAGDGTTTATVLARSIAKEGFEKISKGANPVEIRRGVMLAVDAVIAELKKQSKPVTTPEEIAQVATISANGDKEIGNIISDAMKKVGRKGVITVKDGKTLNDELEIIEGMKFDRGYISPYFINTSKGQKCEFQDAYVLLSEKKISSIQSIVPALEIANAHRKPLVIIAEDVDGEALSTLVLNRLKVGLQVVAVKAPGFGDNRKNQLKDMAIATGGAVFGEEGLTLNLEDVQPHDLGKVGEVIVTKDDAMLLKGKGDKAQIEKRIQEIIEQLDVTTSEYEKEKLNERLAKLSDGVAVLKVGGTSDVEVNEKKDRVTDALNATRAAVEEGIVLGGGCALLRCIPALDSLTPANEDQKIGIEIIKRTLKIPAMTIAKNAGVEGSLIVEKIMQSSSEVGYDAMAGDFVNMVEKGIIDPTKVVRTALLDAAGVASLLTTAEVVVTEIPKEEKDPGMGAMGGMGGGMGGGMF
UniProt Q8WTS6, sequence (whole entry, looked up): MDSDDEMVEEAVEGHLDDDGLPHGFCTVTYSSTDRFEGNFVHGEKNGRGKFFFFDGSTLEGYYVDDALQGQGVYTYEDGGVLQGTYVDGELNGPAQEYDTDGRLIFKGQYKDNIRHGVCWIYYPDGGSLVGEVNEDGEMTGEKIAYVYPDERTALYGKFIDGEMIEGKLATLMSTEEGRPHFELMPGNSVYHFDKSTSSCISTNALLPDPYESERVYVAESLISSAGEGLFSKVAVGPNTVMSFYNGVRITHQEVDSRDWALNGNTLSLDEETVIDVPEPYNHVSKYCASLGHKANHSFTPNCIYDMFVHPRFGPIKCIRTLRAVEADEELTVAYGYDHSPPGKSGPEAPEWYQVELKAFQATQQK
UniProt P10415, sequence (whole entry, looked up): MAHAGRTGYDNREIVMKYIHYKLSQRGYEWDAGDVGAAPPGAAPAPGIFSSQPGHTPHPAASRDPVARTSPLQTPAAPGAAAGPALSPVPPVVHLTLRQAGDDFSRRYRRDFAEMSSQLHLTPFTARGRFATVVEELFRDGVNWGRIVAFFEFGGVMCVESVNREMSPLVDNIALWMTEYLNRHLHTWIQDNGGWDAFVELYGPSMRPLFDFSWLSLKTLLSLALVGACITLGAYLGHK

For Nc1ccc(-c2ccc(F)cc2)cc1NC(=O)C1CCOCC1, the IC50 was greater than 33.3 µM (HDAC7 (Homo sapiens, UniProt Q8WUI4); enzyme activity, inhibitor).
Cc1nc(Nc2ccc3c(c2)/C(=C/c2c[nH]c4ccccc24)C(=O)N3)c2ccccc2n1 gave an IC50 of 0.0386 µM (PIK3CA; enzyme activity, inhibitor, ADP detection).
For Cc1cc(NC2CCN(C)CC2)ccc1-c1cc2c(N3CCC[C@H](C(=O)NCc4ccc(OC(F)(F)F)cc4)C3)ncnc2[nH]1, the IC50 was greater than 8 µM (MAPK9; enzyme activity, inhibitor, mobility shift).
Cc1oc(C)c(-c2ccc(N(CC(C)C)C3CCCCC3)c(NC(=O)NC34CC5CC(CC(C5)C3)C4)c2)c1C(=O)O has an IC50 of 27 ± 4 µM (IDO1; enzyme activity, inhibitor, recombinant enzyme, item: kynurenine; 20 min, 2% DMSO, with: L-tryptophan).
With CC(C)(C)OC(=O)N1CCN(c2ccc3c(O)c(C(=O)NCc4ccc(C#N)nc4)ncc3n2)CC1 the IC50 was greater than 10 µM (KDM4E (Homo sapiens, UniProt B2RXH2); enzyme activity, inhibitor, AlphaScreen).
O=C1/C(=N\c2ccc(Cl)cc2Br)c2ccccc2N1Cc1cccc(Cl)c1 (mixture of isomers) gave an IC50 of 0.104 µM (PIK3CA; enzyme activity, inhibitor, ADP detection).
For COC(=O)Cc1cc2c(cc1C(=O)c1ccccc1I)OCO2, the IC50 was 6.03 µM (Gria2/Glutamate receptor 3; ion current, antagonist, patch clamp).
For CCCC(=O)OC1CCC2(C)C(CCC3(C)C2CC=C2C4C(C)C(C)CCC4(C(=O)O)CCC23C)C1(C)C (stereo not drawn), the IC50 was 70.2 µM (UGT1A3 (Homo sapiens, UniProt P35503); enzyme activity, inhibitor).
The IC50 of O=C(Cc1ccc(OCc2ccccc2)cc1)NC1(C(=O)O)CCN(C(=O)c2ccc(-c3cccc(Cl)c3)cc2)CC1 is reported as greater than 10 µM (CHRM1; IP-1 accumulation, antagonist).
For C[C@@H]1CN(c2cc(=O)n(C)c3ccc(C#N)nc23)[C@H](C)CN1Cc1ccc(S(=O)(=O)n2cnc(C3CC3)n2)cc1, the IC50 was 4.52 µM (DGKZ; inhibitor, ADP-Glo; with: DAG micelles).
For O=C1/C(=N\c2ccc(Cl)cc2Br)c2ccccc2N1C(=O)c1ccccc1Br, the IC50 was 0.0936 µM (PIK3CA; enzyme activity, inhibitor, ADP detection).
With CCN(CC)CC(=O)Nc1cccc(-n2cc(-c3ccc4ccc(-c5cn(-c6cccc(NC(=O)CN(CC)CC)c6)nn5)cc4c3)nn2)c1 the IC50 was greater than 10 µM (PDGFRA (Homo sapiens, UniProt P16234, V561D); enzyme activity, inhibitor).
With COC(=O)Cc1cc2c(cc1C(=O)c1cccc(I)c1)OCO2 the IC50 was 5.89 µM (Gria2/Glutamate receptor 3; ion current, antagonist, patch clamp).
COc1ccc(CNC(=O)c2cnc3c(c(C)nn3C)c2Cl)cc1 has an IC50 of greater than 250 µM (60 kDa heat shock protein, mitochondrial (Homo sapiens, UniProt P10809); ATPase activity, inhibitor).
O=C(O)Cc1cc2c(cc1C(=O)c1ccccc1I)OCO2 has an IC50 of 4.79 µM (Gria2/Glutamate receptor 3; ion current, patch clamp).
Cc1ccc(N=C2CC(=O)c3sc(C)nc3C2=O)cc1 gave an IC50 of greater than 100 µM (SETD7; enzyme activity, inhibitor).
C=C(NC(=O)c1csc(-c2nc3c(cc2O)-c2nc(cs2)C(=O)NC(C(C)O)C(=O)NC(=C(C)OC)c2nc(cs2)C(=O)NC2c4nc(cs4)C(=O)NC(COC(=O)c4c5c6c(cccc6n4O)COC(=O)C(OC4CC(C)(O)C(N(C)C)C(C)O4)C2OC5)c2nc-3cs2)n1)C(N)=O (stereo not drawn) gave an IC50 of 1.01 µM (SLCO1B3 (Homo sapiens, UniProt Q9NPD5); transporter uptake, inhibitor; HEK293; 10 min, pH 7.4).
Cn1cc(-c2ccc3[nH]c4nccc(N[C@H]5CC[C@H](N6CCOCC6)CC5)c4c3c2)cn1 gave an IC50 of 0.053 µM (PIM1 (Homo sapiens, UniProt P11309); enzyme activity, inhibitor, radiometric).
For Cc1ccc(-c2nn(-c3ccc(S(C)(=O)=O)cc3)cc2/C=N/N=C2/NC(=O)CS2)cc1, the IC50 was 0.092 µM (EGFR (Homo sapiens, UniProt P00533, L858R); enzyme activity, inhibitor).
C#CCCn1nc(C)c2c(Cl)c(C(=O)NCC3CC(C)=NO3)cnc21 (stereo not drawn) has an IC50 of greater than 100 µM (60 kDa heat shock protein, mitochondrial, with HSP10 (Homo sapiens, UniProt P10809); HSP60/10-mediated MDH refolding; 5 min, preincubation before ATP, with: denatured malate dehydrogenase).
CC[C@H]1CN([C@@H](CC)c2ccc(C(F)(F)F)cc2)[C@H](CC)CN1c1nc(=O)n(C)c2ccc(C#N)nc12 has an IC50 of 0.002 µM (DGKZ; enzyme activity, inhibitor, ADP detection).
COc1c(Cl)cccc1Nc1c(-c2ccncc2C#C[C@@]2(C)CCCN2C(=O)/C=C/CN(C)C)[nH]c2c1C(=O)NCC2 has an IC50 of greater than 3 µM (MAPK9).
CCn1nc(Cl)c2c1-c1cnc(N)c(c1)O[C@H](C)c1cc(F)ccc1-c1nn(C)cc1C2 gave an IC50 of 0.655 µM (INSRR (Homo sapiens, UniProt P14616); enzyme activity, inhibitor, radiometric).
With C=CCc1cc(OC)c(OC(C)C(O)c2ccc(O)c(OC)c2)c(OC)c1 (stereo not drawn) the IC50 was 7.69 µM (CES1 (Homo sapiens, UniProt P23141); enzyme activity, inhibitor).
With O=C(/C=C/c1ccc(O)cc1)c1ccc(O)cc1 the IC50 was 24 µg/mL (mushroom tyrosinase; enzyme activity, inhibitor; 10 min, with: L-tyrosine).
The IC50 of O=C(CCNC(=O)CNC(=O)CC(c1ccccc1)(c1ccccc1)c1ccccc1)NC[C@@H]1CCCN(Cc2ccc3cc(F)ccc3c2)C1 is reported as 18 µM (CHRM1; ligand displacement, radioligand; cell membranes).
With CC1CCC2C(C)C(OC(=O)CCC(=O)OCCOCCOCCOC(=O)N3CCC(Nc4ccc(S(=O)(=O)NC(=O)c5ccc(N6CCN(CC7=C(c8ccc(Cl)cc8)CC(C)(C)CC7)CC6)cc5Oc5cnc6[nH]ccc6c5)cc4[N+](=O)[O-])CC3)OC3OC4(C)CCC1C32OO4 (stereo not drawn) the IC50 was 0.71 µM (BCL2 (Homo sapiens, UniProt P10415); ligand displacement, FP).
For CO[C@@H]1[C@@H](OC(=O)c2ccc(C)[nH]2)[C@@H](O)[C@H](Oc2ccc3c(O)c(NC(=O)c4c[nH]c(C(=O)Nc5c(O)c6ccc(O[C@@H]7OC(C)(C)[C@H](OC)[C@@H](OC(=O)c8ccc(C)[nH]8)[C@H]7O)c(C)c6oc5=O)c4C)c(=O)oc3c2C)OC1(C)C, the IC50 was roughly 70 µM (Large T antigen (Simian virus 40, UniProt P03070); fork unwinding, inhibitor).
For Cc1oc(C)c(-c2ccc(N(CC(C)C)C3CCCCC3)c(NC(=O)Nc3ccc(B(O)O)cc3)c2)c1C(=O)O, the IC50 was 34 ± 10 µM (IDO1; enzyme activity, inhibitor, recombinant enzyme, item: kynurenine; 20 min, 2% DMSO, with: L-tryptophan).
For Nc1nonc1-c1nnc2c(n1)-c1ccccc1C2=O, the IC50 was greater than 50 µM (SETD7; enzyme activity, inhibitor).
C[C@@H]1Cc2c([nH]c3ccccc23)[C@@H](c2c(F)cc(/C=C/C(=O)O)cc2F)N1C12CC(C1)C2 has an IC50 of 0.000779 µM (ESR2 (Homo sapiens, UniProt Q92731); cell-free assay).
For COC(=O)Cc1cc2c(cc1C(=O)c1ccc(Cl)cc1Cl)OCO2, the IC50 was 4.9 µM (Gria2/Glutamate receptor 3; ion current, antagonist, patch clamp).
Cc1nn(-c2cccc(N)c2)c(=O)c2cnc(Nc3ccc(N4CCNCC4)cc3)nc12 has an IC50 of 1.32 µM (BRAF (Homo sapiens, UniProt P15056, V600E); enzyme activity, inhibitor).

Repeated from above:
C#CCCn1nc(C)c2c(Cl)c(C(=O)NCC3CC(C)=NO3)cnc21 (stereo not drawn) has an IC50 of greater than 100 µM (60 kDa heat shock protein, mitochondrial, with HSP10 (Homo sapiens, UniProt P10809); HSP60/10-mediated MDH refolding; 5 min, preincubation before ATP, with: denatured malate dehydrogenase).
For Cc1oc(C)c(-c2ccc(N(CC(C)C)C3CCCCC3)c(NC(=O)Nc3ccc(B(O)O)cc3)c2)c1C(=O)O, the IC50 was 34 ± 10 µM (IDO1; enzyme activity, inhibitor, recombinant enzyme, item: kynurenine; 20 min, 2% DMSO, with: L-tryptophan).
Cc1nn(-c2cccc(N)c2)c(=O)c2cnc(Nc3ccc(N4CCNCC4)cc3)nc12 has an IC50 of 1.32 µM (BRAF (Homo sapiens, UniProt P15056, V600E); enzyme activity, inhibitor).
